{"data": "Assay results from different studies", "AHR": "Aryl hydrocarbon receptor (AHR, Homo sapiens, UniProt P35869)", "note": "Compare with care: the assays were run in different laboratories. Numbers after ± are the reported error.", "sequence of UniProt P35869 (whole entry, looked up)": "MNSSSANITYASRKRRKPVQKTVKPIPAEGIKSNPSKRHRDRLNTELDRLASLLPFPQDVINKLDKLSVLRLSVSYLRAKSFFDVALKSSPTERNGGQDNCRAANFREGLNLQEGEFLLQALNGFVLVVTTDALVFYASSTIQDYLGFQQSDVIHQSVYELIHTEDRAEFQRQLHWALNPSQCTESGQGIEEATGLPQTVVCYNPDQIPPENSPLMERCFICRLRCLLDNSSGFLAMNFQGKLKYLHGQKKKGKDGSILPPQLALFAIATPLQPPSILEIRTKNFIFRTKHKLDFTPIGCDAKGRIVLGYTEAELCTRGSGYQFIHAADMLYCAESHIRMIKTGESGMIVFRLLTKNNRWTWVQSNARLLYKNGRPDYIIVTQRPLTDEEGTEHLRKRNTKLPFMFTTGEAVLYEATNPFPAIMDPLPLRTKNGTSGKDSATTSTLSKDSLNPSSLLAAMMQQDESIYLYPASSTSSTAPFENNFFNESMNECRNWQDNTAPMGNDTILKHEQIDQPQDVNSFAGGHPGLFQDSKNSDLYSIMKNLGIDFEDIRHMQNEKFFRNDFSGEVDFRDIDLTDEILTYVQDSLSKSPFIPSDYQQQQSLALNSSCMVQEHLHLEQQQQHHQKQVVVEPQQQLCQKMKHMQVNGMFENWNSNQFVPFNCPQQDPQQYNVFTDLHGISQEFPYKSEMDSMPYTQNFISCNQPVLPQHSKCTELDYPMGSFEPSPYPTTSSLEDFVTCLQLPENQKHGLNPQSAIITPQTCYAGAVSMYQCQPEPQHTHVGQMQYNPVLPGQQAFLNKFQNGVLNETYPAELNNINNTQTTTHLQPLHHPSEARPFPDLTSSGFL", "sequence of UniProt P28223 (whole entry, looked up)": "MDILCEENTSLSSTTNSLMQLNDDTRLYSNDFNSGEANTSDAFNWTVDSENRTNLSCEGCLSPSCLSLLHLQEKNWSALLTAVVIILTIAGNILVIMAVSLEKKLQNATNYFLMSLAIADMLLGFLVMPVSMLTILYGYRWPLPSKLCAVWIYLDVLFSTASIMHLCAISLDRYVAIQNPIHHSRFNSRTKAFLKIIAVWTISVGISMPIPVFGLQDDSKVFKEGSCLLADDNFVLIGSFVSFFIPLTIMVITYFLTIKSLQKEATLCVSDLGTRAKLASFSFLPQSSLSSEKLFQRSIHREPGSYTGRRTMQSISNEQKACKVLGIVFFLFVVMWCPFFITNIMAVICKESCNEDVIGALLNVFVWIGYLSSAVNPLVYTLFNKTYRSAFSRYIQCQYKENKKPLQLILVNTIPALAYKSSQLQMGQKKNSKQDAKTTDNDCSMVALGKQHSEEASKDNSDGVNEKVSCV", "sequence of UniProt P28472 (whole entry, looked up)": "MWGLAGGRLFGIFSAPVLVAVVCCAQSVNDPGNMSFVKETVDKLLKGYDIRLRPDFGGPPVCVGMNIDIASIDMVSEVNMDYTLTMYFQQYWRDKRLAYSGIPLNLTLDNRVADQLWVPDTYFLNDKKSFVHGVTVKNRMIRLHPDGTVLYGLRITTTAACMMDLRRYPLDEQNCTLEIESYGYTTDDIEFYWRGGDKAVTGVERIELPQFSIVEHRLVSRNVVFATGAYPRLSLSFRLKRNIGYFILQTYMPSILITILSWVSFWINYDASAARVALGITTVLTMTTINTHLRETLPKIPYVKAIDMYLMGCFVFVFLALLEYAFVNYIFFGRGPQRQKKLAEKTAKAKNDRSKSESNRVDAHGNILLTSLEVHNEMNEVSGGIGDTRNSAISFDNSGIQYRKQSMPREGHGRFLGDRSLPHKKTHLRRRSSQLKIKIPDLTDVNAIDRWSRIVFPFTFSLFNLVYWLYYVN", "sequence of UniProt P18507 (whole entry, looked up)": "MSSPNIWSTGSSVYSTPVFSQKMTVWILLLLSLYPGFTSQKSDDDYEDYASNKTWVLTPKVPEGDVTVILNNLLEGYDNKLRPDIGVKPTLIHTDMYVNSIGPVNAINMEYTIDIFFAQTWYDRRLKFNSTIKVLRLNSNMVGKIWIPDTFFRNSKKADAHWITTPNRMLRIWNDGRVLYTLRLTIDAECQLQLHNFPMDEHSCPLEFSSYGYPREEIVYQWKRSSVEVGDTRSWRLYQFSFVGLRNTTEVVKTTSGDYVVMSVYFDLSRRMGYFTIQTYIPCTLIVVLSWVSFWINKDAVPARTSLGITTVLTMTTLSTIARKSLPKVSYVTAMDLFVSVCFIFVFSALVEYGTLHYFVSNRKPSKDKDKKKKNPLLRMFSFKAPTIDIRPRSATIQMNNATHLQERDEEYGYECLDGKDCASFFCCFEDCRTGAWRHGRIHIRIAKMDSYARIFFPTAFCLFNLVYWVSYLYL", "sequence of UniProt P31645 (whole entry, looked up)": "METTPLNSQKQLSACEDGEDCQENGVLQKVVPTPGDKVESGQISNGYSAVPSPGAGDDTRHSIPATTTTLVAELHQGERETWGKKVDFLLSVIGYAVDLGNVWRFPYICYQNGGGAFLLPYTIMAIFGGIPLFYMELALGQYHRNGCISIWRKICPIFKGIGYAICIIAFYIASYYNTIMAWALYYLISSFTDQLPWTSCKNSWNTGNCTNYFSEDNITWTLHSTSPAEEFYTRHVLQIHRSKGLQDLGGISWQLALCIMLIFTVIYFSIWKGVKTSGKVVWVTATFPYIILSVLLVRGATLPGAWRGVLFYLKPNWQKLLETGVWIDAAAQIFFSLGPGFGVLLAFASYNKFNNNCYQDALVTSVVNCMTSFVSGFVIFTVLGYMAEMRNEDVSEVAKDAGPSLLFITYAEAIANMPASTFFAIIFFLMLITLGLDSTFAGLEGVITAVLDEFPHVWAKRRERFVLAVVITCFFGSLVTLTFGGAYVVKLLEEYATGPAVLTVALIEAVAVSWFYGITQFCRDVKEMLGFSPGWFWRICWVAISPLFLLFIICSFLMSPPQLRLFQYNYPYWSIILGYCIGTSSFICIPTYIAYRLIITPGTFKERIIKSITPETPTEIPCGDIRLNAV", "sequence of UniProt P31644 (whole entry, looked up)": "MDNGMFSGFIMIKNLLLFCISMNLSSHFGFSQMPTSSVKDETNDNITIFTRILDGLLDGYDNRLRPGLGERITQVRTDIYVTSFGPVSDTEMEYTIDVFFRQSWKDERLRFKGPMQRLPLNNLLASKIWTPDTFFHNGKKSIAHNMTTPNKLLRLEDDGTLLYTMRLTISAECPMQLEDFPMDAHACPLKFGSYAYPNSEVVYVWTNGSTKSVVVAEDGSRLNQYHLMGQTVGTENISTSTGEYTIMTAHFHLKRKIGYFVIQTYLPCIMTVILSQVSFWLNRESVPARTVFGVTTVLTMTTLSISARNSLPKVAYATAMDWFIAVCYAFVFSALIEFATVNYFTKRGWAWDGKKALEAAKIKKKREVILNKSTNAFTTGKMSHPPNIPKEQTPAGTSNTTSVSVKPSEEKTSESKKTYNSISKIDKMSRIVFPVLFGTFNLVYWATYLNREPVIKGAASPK", "sequence of UniProt Q23497 (whole entry, looked up)": "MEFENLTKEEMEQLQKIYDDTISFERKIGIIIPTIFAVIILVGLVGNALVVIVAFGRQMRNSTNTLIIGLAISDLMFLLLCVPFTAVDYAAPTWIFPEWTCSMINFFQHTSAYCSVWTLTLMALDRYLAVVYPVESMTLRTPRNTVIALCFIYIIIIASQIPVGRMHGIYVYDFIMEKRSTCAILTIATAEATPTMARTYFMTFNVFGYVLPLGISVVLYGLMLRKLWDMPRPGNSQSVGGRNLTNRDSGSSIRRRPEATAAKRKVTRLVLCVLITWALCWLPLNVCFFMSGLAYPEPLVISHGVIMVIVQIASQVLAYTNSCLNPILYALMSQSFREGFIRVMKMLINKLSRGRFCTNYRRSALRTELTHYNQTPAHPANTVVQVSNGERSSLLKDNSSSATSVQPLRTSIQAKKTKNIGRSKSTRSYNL"}
{"Structure (SMILES)": "Cc1ccc2ccc3ccccc3c2c1", "target": "AHR", "assay": "reporter gene, agonist, yeast LacZ reporter", "system": "Saccharomyces cerevisiae", "conditions": "18 h", "EC50 [nM]": 19200}
{"Structure (SMILES)": "O=C1c2ccccc2C(=O)c2c1ccc1ccccc21", "target": "Aryl hydrocarbon receptor (Danio rerio, UniProt Q9YGV3)", "assay": "agonist", "system": "ZF4 reporter cells", "conditions": "22 to 24 h", "EC50 [nM]": 1200}
{"Structure (SMILES)": "CC#Cc1cc(C)nc(Nc2ccccc2)n1", "target": "AHR", "assay": "agonist", "EC50 [nM]": 770}
{"Structure (SMILES)": "NCc1cc(=O)[nH]o1", "target": "GABA-A receptor; alpha-5/beta-3/gamma-2 (Homo sapiens, UniProt P18507+P28472+P31644)", "assay": "chloride current, agonist, electrophysiology", "system": "HEK293 expressing GABAA α5β3γ2", "EC50 [nM]": 1000}
{"Structure (SMILES)": "CNC(C)Cc1ccc2n[se]nc2c1 (stereo not shown)", "target": "SLC6A4 (Homo sapiens, UniProt P31645)", "assay": "transporter current, whole-cell patch clamp", "system": "HEK293", "conditions": "holding -60 mV", "EC50 [nM]": 770}
{"Structure (SMILES)": "Cc1cccc2ccc3ccccc3c12", "target": "AHR", "assay": "reporter gene, agonist, yeast LacZ reporter", "system": "Saccharomyces cerevisiae", "conditions": "18 h, 30 °C", "scale": "relative to: 50% of 100 µM phenanthrene activity", "EC50 [nM]": 11700}
{"Structure (SMILES)": "CSCC[C@H](NC(=O)[C@H](CCCNC(=N)N)NC(=O)[C@H](Cc1ccccc1)NC(=O)[C@H](C)NC(=O)[C@H](CC(N)=O)NC(=O)[C@@H]1CCCN1C(=O)[C@H](CC(=O)O)NC(=O)[C@H](CC(C)C)NC(=O)[C@H](CC(N)=O)NC(=O)[C@@H](N)C(C)C)C(=O)N[C@@H](CO)C(=O)N[C@@H](Cc1ccccc1)C(N)=O", "target": "Galanin-like G-protein coupled receptor npr-9 (npr-9, Caenorhabditis elegans, UniProt Q23497)", "assay": "calcium mobilization, agonist, aequorin luminescence", "system": "CHO cells", "EC50 [nM]": 480}
{"Structure (SMILES)": "CC[C@H](C)[C@H](NC(=O)[C@H](CO)NC(=O)[C@H](C)NC(=O)[C@H](Cc1ccc(OP(=O)(O)O)cc1)NC(=O)[C@H](CCC(=O)O)NC(=O)[C@@H](NC(=O)[C@H](Cc1c[nH]cn1)NC(=O)[C@H](CC(N)=O)NC(=O)[C@H](CC(N)=O)NC(=O)[C@@H]1CCCN1C(=O)[C@H](CCC(=O)O)NC(=O)[C@H](C)NC(=O)[C@H](C)NC(=O)[C@H](CCC(N)=O)NC(=O)[C@@H]1CCCN1C(=O)[C@H](C)NC(=O)[C@@H]1CCCN1C(=O)[C@H](CCCCN)NC(=O)[C@H](CCCCN)NC(=O)CNC(=O)[C@H](CCCCN)NC(=O)[C@@H]1CCCN1C(=O)[C@H](CC(C)C)NC(=O)[C@H](CC(N)=O)NC(=O)[C@H](CC(C)C)NC(=O)[C@H](CC(=O)O)NC(=O)[C@H](C)NC(=O)[C@H](Cc1ccc(OP(=O)(O)O)cc1)NC(=O)[C@@H](NC(=O)[C@@H](NC(=O)[C@@H](N)CC(=O)O)[C@@H](C)CC)[C@@H](C)O)[C@@H](C)O)C(=O)N[C@@H](CCC(N)=O)C(=O)N[C@H](C(=O)N[C@@H](CO)C(=O)O)[C@@H](C)O", "target": "PTPN11 (Homo sapiens, UniProt Q06124, R111A)", "assay": "enzyme activity, activator", "conditions": "pH 7.0, 0.2% DMSO, added: DiFMUP 100 µM, phosphopeptide", "EC50 [nM]": "237 ± 4"}
{"Structure (SMILES)": "COc1cc(CCNC(c2ccccc2O)C2CC2)c(OC)cc1C#N (stereo not shown)", "target": "HTR2A (Homo sapiens, UniProt P28223)", "assay": "agonist", "conditions": "cell-based", "EC50 [nM]": 34.7}
{"Structure (SMILES)": "N[C@H](C(=O)O)c1cc(=O)[nH]o1", "target": "uncharacterized protein (Ixodes scapularis, UniProt A0A0N9E2I2)", "assay": "ion current, agonist, two-electrode voltage clamp", "system": "Xenopus oocytes", "conditions": "holding potential -80 mV", "scale": "relative to: 1 mM L-glutamate response", "EC50 [nM]": 10800}
{"note": "A few entries again:"}
{"Structure (SMILES)": "O=C1c2ccccc2C(=O)c2c1ccc1ccccc21", "target": "Aryl hydrocarbon receptor (Danio rerio, UniProt Q9YGV3)", "assay": "agonist", "system": "ZF4 reporter cells", "conditions": "22 to 24 h", "EC50 [nM]": 1200}
